Experimental data collected from several papers.
Compare with care: the assays were run in different laboratories. Numbers after ± are the reported error. No end group written: not given here. The star is where a group is joined.
OPRM1: Mu-type opioid receptor (OPRM1, Homo sapiens, UniProt P35372)
UniProt P35372, sequence (whole entry, looked up): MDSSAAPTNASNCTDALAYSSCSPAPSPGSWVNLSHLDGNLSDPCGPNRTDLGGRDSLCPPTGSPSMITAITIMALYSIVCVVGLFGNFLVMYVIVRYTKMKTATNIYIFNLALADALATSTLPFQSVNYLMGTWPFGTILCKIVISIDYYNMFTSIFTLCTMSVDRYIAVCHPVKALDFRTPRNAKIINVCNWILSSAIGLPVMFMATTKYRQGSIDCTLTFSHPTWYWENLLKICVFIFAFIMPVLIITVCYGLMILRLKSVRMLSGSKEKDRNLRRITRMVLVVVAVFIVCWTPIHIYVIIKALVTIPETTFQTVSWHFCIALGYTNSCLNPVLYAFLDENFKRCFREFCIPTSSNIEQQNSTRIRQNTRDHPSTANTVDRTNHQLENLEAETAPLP
Kelch domain-containing protein 2: Kelch domain-containing protein 2 (UniProt Q9Y2U9)
UniProt Q9Y2U9, sequence (whole entry, looked up): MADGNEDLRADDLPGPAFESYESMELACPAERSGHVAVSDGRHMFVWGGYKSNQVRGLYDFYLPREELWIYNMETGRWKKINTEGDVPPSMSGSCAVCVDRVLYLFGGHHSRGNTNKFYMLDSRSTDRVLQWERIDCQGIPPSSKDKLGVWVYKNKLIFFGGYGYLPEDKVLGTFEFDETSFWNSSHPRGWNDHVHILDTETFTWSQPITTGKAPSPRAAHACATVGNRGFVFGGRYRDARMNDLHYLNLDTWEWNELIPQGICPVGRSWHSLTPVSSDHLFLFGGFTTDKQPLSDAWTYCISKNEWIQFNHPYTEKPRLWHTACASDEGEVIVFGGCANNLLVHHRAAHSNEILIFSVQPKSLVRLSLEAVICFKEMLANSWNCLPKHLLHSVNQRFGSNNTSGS
CNR2: Cannabinoid receptor 2 (CNR2, Homo sapiens, UniProt P34972)
UniProt P34972, sequence (whole entry, looked up): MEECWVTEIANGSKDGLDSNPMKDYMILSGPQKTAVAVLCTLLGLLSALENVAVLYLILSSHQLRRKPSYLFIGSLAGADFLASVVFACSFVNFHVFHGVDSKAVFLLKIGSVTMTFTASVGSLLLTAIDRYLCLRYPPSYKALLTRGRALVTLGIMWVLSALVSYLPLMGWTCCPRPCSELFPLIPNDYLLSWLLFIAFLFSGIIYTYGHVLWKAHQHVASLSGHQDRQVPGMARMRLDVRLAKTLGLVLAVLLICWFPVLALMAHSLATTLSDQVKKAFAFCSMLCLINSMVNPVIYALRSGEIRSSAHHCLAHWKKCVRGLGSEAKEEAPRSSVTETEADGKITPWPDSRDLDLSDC
CSK: Tyrosine-protein kinase CSK (CSK, Homo sapiens, UniProt P41240)
UniProt P41240, sequence (whole entry, looked up): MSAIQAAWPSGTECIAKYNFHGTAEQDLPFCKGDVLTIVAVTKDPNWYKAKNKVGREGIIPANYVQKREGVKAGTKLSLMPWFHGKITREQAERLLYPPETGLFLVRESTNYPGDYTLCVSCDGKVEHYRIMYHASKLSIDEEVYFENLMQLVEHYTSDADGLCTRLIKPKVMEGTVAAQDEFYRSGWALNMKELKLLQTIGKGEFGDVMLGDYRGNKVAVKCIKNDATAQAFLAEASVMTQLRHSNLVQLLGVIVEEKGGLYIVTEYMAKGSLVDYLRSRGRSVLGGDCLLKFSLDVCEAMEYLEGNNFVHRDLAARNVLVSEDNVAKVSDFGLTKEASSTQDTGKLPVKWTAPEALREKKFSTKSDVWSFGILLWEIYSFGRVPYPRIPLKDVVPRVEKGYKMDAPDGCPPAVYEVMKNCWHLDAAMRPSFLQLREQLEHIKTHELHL
Aequorin-1 C152S/C159S/C187S: Aequorin-1 (Aequorea victoria, UniProt P07164, C152S/C159S/C187S)
UniProt P07164, sequence (whole entry, unmodified, looked up): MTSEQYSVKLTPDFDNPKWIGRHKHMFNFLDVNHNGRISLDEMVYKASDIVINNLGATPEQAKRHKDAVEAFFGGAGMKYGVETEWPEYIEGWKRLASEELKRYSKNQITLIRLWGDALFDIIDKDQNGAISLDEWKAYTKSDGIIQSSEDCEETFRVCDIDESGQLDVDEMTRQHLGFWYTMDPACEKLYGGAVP
ESR2: Estrogen receptor beta (ESR2, Homo sapiens, UniProt Q92731)
UniProt Q92731, sequence (whole entry, looked up): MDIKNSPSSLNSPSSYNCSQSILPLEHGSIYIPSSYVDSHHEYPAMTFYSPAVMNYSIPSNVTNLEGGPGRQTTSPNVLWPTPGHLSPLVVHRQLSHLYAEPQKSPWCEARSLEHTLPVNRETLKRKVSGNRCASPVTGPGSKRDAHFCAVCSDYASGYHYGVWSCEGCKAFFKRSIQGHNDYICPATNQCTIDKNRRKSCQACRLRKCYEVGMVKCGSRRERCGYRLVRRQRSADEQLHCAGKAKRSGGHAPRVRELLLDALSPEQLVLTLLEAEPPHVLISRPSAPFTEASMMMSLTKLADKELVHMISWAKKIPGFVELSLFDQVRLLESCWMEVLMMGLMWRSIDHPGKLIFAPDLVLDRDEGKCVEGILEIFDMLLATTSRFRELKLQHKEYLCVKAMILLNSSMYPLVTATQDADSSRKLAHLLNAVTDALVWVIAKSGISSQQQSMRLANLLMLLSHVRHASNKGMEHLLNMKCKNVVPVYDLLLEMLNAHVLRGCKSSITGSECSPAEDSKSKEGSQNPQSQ
UniProt P34969, sequence (whole entry, looked up): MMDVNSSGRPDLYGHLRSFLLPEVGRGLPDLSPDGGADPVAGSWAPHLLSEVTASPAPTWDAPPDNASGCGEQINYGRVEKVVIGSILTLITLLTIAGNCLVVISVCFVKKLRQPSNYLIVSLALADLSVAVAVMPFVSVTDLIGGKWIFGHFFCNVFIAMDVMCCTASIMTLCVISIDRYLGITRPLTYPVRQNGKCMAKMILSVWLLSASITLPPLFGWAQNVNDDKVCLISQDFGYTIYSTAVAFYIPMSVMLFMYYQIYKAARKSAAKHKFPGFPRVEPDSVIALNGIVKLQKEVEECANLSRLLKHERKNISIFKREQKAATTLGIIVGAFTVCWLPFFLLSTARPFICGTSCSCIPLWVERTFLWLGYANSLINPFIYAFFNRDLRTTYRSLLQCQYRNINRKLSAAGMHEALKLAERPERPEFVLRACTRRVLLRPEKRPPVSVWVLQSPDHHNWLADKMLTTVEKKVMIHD
UniProt Q15858, sequence (whole entry, looked up): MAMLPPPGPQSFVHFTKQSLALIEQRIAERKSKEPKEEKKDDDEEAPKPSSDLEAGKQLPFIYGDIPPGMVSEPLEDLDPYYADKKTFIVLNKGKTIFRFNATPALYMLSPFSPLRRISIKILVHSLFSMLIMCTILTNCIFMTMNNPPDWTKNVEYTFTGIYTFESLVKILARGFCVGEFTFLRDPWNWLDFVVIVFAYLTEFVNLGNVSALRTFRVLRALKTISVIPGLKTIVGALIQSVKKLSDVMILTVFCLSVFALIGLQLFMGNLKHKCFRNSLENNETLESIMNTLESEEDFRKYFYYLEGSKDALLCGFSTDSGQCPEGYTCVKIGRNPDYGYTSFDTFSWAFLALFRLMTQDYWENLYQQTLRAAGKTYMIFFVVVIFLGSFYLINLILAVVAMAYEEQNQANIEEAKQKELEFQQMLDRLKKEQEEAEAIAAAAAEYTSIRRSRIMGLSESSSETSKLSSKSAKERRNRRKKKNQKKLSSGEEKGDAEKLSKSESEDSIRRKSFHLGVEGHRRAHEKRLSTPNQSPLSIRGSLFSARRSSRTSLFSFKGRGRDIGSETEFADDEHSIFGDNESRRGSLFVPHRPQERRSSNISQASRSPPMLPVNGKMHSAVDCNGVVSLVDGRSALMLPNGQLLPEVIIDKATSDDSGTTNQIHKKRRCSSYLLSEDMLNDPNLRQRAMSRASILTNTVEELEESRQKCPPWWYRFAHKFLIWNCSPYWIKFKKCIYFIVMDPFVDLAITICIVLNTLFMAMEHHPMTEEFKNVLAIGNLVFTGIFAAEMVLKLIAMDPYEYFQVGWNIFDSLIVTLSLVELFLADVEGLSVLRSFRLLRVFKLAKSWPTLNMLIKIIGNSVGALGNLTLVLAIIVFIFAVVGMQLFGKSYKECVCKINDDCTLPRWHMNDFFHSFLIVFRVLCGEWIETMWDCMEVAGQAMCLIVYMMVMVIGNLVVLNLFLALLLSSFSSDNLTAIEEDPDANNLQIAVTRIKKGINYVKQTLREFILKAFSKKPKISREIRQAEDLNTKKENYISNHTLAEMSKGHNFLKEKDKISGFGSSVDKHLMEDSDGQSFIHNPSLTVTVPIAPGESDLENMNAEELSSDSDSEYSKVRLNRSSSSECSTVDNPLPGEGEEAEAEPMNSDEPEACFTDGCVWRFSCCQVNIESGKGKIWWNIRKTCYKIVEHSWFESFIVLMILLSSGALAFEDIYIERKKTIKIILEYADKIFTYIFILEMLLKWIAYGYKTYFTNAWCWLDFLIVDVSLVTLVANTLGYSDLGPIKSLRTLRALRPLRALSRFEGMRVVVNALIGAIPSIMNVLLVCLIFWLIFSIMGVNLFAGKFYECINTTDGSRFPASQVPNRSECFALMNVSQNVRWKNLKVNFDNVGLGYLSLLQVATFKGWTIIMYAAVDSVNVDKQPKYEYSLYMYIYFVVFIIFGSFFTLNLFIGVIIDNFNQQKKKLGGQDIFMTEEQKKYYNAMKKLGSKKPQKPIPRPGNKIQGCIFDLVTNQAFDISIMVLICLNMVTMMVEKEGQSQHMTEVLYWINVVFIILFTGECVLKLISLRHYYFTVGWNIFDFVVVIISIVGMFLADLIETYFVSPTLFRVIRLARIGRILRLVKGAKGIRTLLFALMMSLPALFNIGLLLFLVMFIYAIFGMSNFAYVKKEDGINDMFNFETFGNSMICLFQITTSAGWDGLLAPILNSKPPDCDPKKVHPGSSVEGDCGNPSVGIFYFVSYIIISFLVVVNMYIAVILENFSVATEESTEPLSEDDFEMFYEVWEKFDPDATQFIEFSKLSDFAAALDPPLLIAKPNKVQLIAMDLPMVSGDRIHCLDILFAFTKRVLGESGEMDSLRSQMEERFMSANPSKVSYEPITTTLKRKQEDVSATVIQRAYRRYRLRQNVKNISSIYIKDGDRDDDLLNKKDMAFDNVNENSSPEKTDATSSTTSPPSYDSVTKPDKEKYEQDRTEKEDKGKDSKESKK

Molecule	target	assay	system	setting	scale	quantity	result
C=CCOc1ccc(F)cc1[C@H]1C[C@@H]1CN.Cl	HTR2B (Homo sapiens, UniProt P41595)	–	HEK293	10 µM	–	activity	inactive
O=C(O)c1ccccc1-c1cccnc1	pqsE (Pseudomonas aeruginosa, UniProt P20581)	thermal stability, DSF	–	–	–	ΔTm	8.7 °C
O=P(O)(O)OC[C@@H](O)[C@@H](O)CO	Orotidine 5'-phosphate decarboxylase (Saccharomyces cerevisiae S288c, UniProt P03962, D37G)	decarboxylation of FO, activator	–	concentration not given, D37G variant	relative to: wild type	increase in ΔG activation	2.5 kcal/mol
CC(C)[C@@H](CN1CCN(c2cccc(O)c2)[C@@H](C)C1)NC(=O)c1ccc(Oc2cccc(O)c2)cc1	OPRM1	antagonist	CHO	with: DAMGO	–	Ke	69 ± 14 nM
TAFEGKLEEIIRSSEGG	Kelch domain-containing protein 2	native mass spectrometry	peptide, 200 mM ammonium acetate	20 µM Kelch domain-containing protein 2, pH 7	relative to: total Kelch domain-containing protein 2 signal	fraction of protein bound	1%
NC(=O)CN1CCC[C@H](NC(=O)c2nn(Cc3ccc(F)cc3)c3ccccc23)C1	CNR2	calcium mobilization, agonist	CHO-K1 expressing Gαq16	–	relative to: CP55,940 maximum	Emax	61 ± 6%
FEEPIYIEPIDFE	CSK	substrate, coupled enzyme	peptide	pH 7.4, room temperature, with: 1 mM ATP, 5 mM MnCl2	–	kcat/Km	1400 M⁻¹ s⁻¹
N=C(N)NCCC[C@H](N)C(=O)O	CRT (Plasmodium falciparum, UniProt W7FI62)	scintillation proximity	nanodiscs	1 mM, with: [3H]-chloroquine and [3H]-piperaquine	–	inhibition of binding	inhibited
CC1(CCN2CCc3ccccc3C2)Cc2cc(Cl)ccc2C1=O (single isomer, unassigned; (-))	HTR7 (Homo sapiens, UniProt P34969)	–	–	–	relative to: HTR7 over other receptors except 5-HT1A	selectivity ratio	> 100 fold
YKKRLSVELT	PAK4 (Homo sapiens, UniProt O96013)	kinase activity, substrate	peptide	–	–	kcat/Km	300 ± 100 M⁻¹ s⁻¹
Cc1cc(C(=O)N[C@H](CN2CCN(c3cccc(O)c3)[C@@H](C)C2)C(C)C)ccc1Oc1ccccc1	OPRM1	antagonist	CHO	with: DAMGO	–	Ke	15 ± 2 nM
CCOC(=O)OC(=O)OCC	ADH1 (Saccharomyces cerevisiae, UniProt P00330, H45R/H49Q)	enzyme activity, inactivator	–	120 µM, pH 8.0, 30 °C, turnover number	–	remaining activity	49 s⁻¹
Oc1ccc(-c2cc(Br)c(-c3ccc(O)cc3)[se]2)cc1	Estrogen receptor (ESR1, Homo sapiens, UniProt P03372)	antagonist	HEK293T	highest tested concentration, with: estradiol 10 nM	relative to: estradiol alone	efficacy	161 ± 22%
anthraquinone-neomycin	poly(dA)•2poly(dT) triplex	DNA binding	–	concentration not given, pH 5.5, KCl 150 mM	–	heat capacity change	-110 ± 15 cal/(mol·K)
Nc1ncnc2c1ncn2[C@@H]1O[C@H](COP(=O)(O)OP(=O)(O)NP(=O)(O)O)[C@@H](O)[C@H]1O	matB (Rhodopseudomonas palustris, UniProt Q6ND88, C106A/K488A/Q457C/R286C)	nucleotide binding	–	0.5 µM protein, pH 7.0, 20 °C, 10 mM MgCl2	relative to: saturating ligand over no ligand	fluorescence ratio	3.5 ± 0.1
C[C@@H](O)[C@H](NS(=O)(=O)c1cccc2c(N(C)C)cccc12)C(=O)N[C@@H](CCCCN)C(=O)N[C@@H](CCC(N)=O)C(=O)N[C@@H](CCC(=O)O)C(=O)N[C@@H](CCC(=O)O)C(=O)N[C@@H](Cc1ccccc1)C(=O)N[C@@H](Cc1ccc(O)cc1)C(=O)N[C@@H](Cc1ccccc1)C(=O)O	Rho guanine nucleotide exchange factor TIAM1, PDZ domain (TIAM1, Homo sapiens, UniProt Q13009)	fluorescence anisotropy	–	concentration not given, dansylated peptide	relative to: model peptide Kd over peptide Kd	binding affinity fold change	2
O[C@@H](CN1CC[C@H](CCOC(c2ccccc2)c2ccccc2)[C@@H](O)C1)c1ccc(F)cc1	Transporter (Slc6a2, Rattus norvegicus, UniProt Q63380)	noradrenaline uptake, inhibitor	rat hippocampus	with: [3H]noradrenaline	–	Ki	24.8 nM
Ac-QDEVD-pNA (N-acetyl, C-pNA; pNA = O=[N+]([O-])c1ccc(N*)cc1)	Caspase-7 (CASP7, Homo sapiens, UniProt P55210)	substrate hydrolysis, substrate, colorimetric	–	pH 7.5	–	kcat/Km	20000 ± 1670 M⁻¹ s⁻¹
LPNWFNLSSNLM	HIV-1 neutralising antibody 4E10	phage binding, M13 phage ELISA	peptide	concentration not given	lower = stronger binding	binding titer	5.1e+07 M13/mL
NC(=O)c1ccccc1CNC(=O)c1nn(Cc2ccc(F)cc2)c2ccccc12	CNR2	calcium mobilization, agonist	CHO-K1 expressing Gαq16	–	relative to: CP55,940 maximum	Emax	79 ± 3%
Oc1c(Cl)ccc(Cl)c1-c1cc(Cl)c(Cl)cc1Cl	Aequorin-1 C152S/C159S/C187S	aequorin bioluminescence, inhibitor	–	2 h, with: coelenterazine	–	detection limit	0.011 µM
O=S(=O)(F)CCCCCc1ccc(O)cc1	Fatty-acid amide hydrolase 1, transmembrane domain deleted (Faah, Rattus norvegicus, UniProt P97612)	covalent inhibitor	–	2-fold molar excess, 60 min	–	intact mass increase	227 Da
N=C(N)NCCC[C@@H]1NC(=O)[C@@H]2CCCN2C(=O)[C@H]2CCCN2C(=O)[C@H](Cc2ccccc2)NC(=O)[C@H](Cc2c[nH]cn2)NC(=O)[C@H](CC(N)=O)NC(=O)[C@H](Cc2ccccc2)NC(=O)[C@H](Cc2ccccc2)NC1=O	Melanocortin receptor 5 (Mus musculus, UniProt P41149)	agonist?	–	concentration not given	–	activity	inactive
Oc1ccc(-c2cc(Cl)ccc2Cl)cc1	Aequorin-1 C152S/C159S/C187S	aequorin bioluminescence, inhibitor	–	2 h, with: coelenterazine	–	detection limit	23 µM

Molecule	target	assay	system	setting	scale	quantity	result
Oc1cc(-c2ccc(-c3ccc(F)c(O)c3)[se]2)ccc1F	ESR2	antagonist	HEK293T	highest tested concentration, 24 h, with: estradiol 10 nM	relative to: estradiol alone	efficacy	79 ± 3%
FEDSDYADIFIEE	CSK	substrate, coupled enzyme	peptide	pH 7.4, room temperature, with: 1 mM ATP, 5 mM MnCl2	–	kcat/Km	280 M⁻¹ s⁻¹
CC(C)C[C@H](NC(=O)CNC(=O)[C@H](CC(C)C)NC(=O)[C@@H]1CCCN1C(=O)Cc1ccc2ccc3cccc4ccc1c2c34)C(=O)N[C@@H](CCCNC(=N)N)C(=O)N[C@@H](CO)C(=O)N[C@@H](CCCCN)C(=O)O	MMP9 (Homo sapiens, UniProt P14780)	substrate, HPLC	–	500 µM, 72 h, pH 7.5, 37 °C	–	hydrolysis product	59%
CCCCCc1cc(O)c(C/C=C(\C)CCC=C(C)C)c(O)c1	SCN9A (Homo sapiens, UniProt Q15858)	open-state fast inactivation shift, automated patch clamp	–	–	relative to: vehicle	lowest effective concentration	15 µM
CSc1cccc(CC(=O)N[C@H]2CCOC2=O)c1	lasR (Pseudomonas aeruginosa, UniProt P25084)	reporter gene, agonist	Escherichia coli JLD271/pJN105L/pSC11	100 µM	relative to: OdDHL 100 µM	activation	32%
IQGGDDSNVIGAIGGA	Kelch domain-containing protein 2	native mass spectrometry	peptide, 200 mM ammonium acetate	20 µM Kelch domain-containing protein 2, pH 7	relative to: total Kelch domain-containing protein 2 signal	fraction of protein bound	0.9%
Oc1ccc(-c2ccc(-c3ccc(O)cc3Cl)[se]2)c(Cl)c1	ESR2	antagonist	HEK293T	highest tested concentration, 24 h, with: estradiol 10 nM	relative to: estradiol alone	efficacy	74 ± 5%
DMRSIFHDNPFN	HIV-1 neutralising antibody 4E10	phage binding, M13 phage ELISA	peptide	concentration not given	lower = stronger binding	binding titer	2.7e+07 M13/mL
CC(C)[C@@H](CN1CCN(c2cccc(O)c2)[C@@H](C)C1)NC(=O)c1ccc(Oc2ccc(O)cc2)cc1	OPRM1	antagonist	CHO	with: DAMGO	–	Ke	71 ± 19 nM
CC1N=C(c2ccccc2F)c2cc(Nc3ccc(O)cc3)ccc2NC1=O (centres unmarked)	ADRA2A (Homo sapiens, UniProt P08913)	ligand displacement, radioligand	–	10 µM	–	inhibition	36%
GSSFLSPEHQRVQQRKESKKPPAKLQPK-{Gly(Biotin)} (not fully specified; biotin-labelled)	mouse GOAT H338A	substrate	peptide	10 µM, 5 min	–	acyl transfer	inactive
Oc1cc(-c2cc(Br)c(-c3ccc(F)c(O)c3)[se]2)ccc1F	ESR2	antagonist	HEK293T	highest tested concentration, 24 h, with: estradiol 10 nM	relative to: estradiol alone	efficacy	69 ± 16%
AEHWIDVRVPEQYQQEHVQGA	Kelch domain-containing protein 2	native mass spectrometry	peptide, 200 mM ammonium acetate	20 µM Kelch domain-containing protein 2, pH 7	relative to: total Kelch domain-containing protein 2 signal	fraction of protein bound	1.6%
CCCCCn1nc(C(=O)NC(C)(C)c2cccc(C(N)=O)c2)c2ccccc21	CNR2	calcium mobilization, agonist	CHO-K1 expressing Gαq16	–	relative to: CP55,940 maximum	Emax	43 ± 5%
QRSATGTSSRSMGG	Kelch domain-containing protein 2	native mass spectrometry	peptide, 200 mM ammonium acetate	20 µM Kelch domain-containing protein 2, pH 7	relative to: total Kelch domain-containing protein 2 signal	fraction of protein bound	1.7%
CNc1ccc2oc(C[C@H]3O[C@@]4(CC[C@H]3C)O[C@H]([C@H](C)C(=O)c3ccc[nH]3)[C@H](C)C[C@H]4C)nc2c1C(=O)O	Yes kinase, rat	item: Yes pY416	–	1 µM, 5 min	relative to: untreated control	phosphorylation level	137 ± 18%
C[C@]12CC[C@@H]3c4ccc(O)cc4CC[C@H]3[C@@H]1CC[C@@H]2O	Neuronal acetylcholine receptor subunit alpha-4, with beta2 subunit (CHRNA4, Homo sapiens, UniProt P43681)	potentiator	–	–	–	potentiating concentration	> 1 µM
COc1cc2cc(c1Cl)N(C)C(=O)C[C@H](OC(=O)[C@H](C)N(C)C(C)=O)[C@]1(C)O[C@H]1[C@H](C)[C@@H]1C[C@@](O)(NC(=O)O1)[C@H](OC)/C=C/C=C(\C)C2	Tubulin beta chain (Bos taurus, UniProt Q6B856)	microtubule polymerization	–	30 °C	–	near-complete inhibition conc.	3 µM
CC1(C)Oc2cc([C@]34CC5CC(C[C@@](N=[N+]=[N-])(C5)C3)C4)cc(O)c2[C@@H]2C[C@H](O)CC[C@H]21	Cnr1 (Rattus norvegicus, UniProt P20272)	radioligand binding Bmax reduction	rat brain membranes	10-fold Ki, with: [3H]CP-55,940	relative to: untreated	covalent labeling	61%
Cc1ccc(C)n1-c1ccc(-c2ccc(/C=C/C(=O)O)cc2)c(C(=O)O)c1	Envelope glycoprotein gp160, gp41 six-helix bundle (env, Human immunodeficiency virus type 1 group M subtype B, UniProt P04578)	six-helix bundle formation	–	concentration not given	relative to: A12	fold inhibition improvement	~1.4
CCN(C)C(=O)Oc1cccc([C@H](C)N(C)C)c1	CES1 (Homo sapiens, UniProt P23141)	irreversible inhibitor	–	5× IC50 or 200 µM, 1 h, preincubation then inhibitor removal, with: o-nitrophenyl acetate substrate	–	remaining activity	78.8%
Oc1ccc(-c2c[se]cc2-c2ccc(O)c(F)c2)cc1F	ESR2	antagonist	HEK293T	highest tested concentration, 24 h, with: estradiol 10 nM	relative to: estradiol alone	efficacy	10 ± 7%
O=Cc1ccc(Cl)cc1Cl	Delta-aminolevulinic acid dehydratase (Homo sapiens, UniProt P13716, C162A/K59N)	enzyme activity	–	100 mM	–	remaining activity	50.7 ± 0.3%

For quick reference, copied from above:
Molecule	target	assay	system	setting	scale	quantity	result
LPNWFNLSSNLM	HIV-1 neutralising antibody 4E10	phage binding, M13 phage ELISA	peptide	concentration not given	lower = stronger binding	binding titer	5.1e+07 M13/mL
NC(=O)c1ccccc1CNC(=O)c1nn(Cc2ccc(F)cc2)c2ccccc12	CNR2	calcium mobilization, agonist	CHO-K1 expressing Gαq16	–	relative to: CP55,940 maximum	Emax	79 ± 3%
Oc1c(Cl)ccc(Cl)c1-c1cc(Cl)c(Cl)cc1Cl	Aequorin-1 C152S/C159S/C187S	aequorin bioluminescence, inhibitor	–	2 h, with: coelenterazine	–	detection limit	0.011 µM
O=S(=O)(F)CCCCCc1ccc(O)cc1	Fatty-acid amide hydrolase 1, transmembrane domain deleted (Faah, Rattus norvegicus, UniProt P97612)	covalent inhibitor	–	2-fold molar excess, 60 min	–	intact mass increase	227 Da
